Assay results from different studies.
A part holds a random share of what one study measured.
UniProt Q8NEV4, sequence (whole entry, looked up): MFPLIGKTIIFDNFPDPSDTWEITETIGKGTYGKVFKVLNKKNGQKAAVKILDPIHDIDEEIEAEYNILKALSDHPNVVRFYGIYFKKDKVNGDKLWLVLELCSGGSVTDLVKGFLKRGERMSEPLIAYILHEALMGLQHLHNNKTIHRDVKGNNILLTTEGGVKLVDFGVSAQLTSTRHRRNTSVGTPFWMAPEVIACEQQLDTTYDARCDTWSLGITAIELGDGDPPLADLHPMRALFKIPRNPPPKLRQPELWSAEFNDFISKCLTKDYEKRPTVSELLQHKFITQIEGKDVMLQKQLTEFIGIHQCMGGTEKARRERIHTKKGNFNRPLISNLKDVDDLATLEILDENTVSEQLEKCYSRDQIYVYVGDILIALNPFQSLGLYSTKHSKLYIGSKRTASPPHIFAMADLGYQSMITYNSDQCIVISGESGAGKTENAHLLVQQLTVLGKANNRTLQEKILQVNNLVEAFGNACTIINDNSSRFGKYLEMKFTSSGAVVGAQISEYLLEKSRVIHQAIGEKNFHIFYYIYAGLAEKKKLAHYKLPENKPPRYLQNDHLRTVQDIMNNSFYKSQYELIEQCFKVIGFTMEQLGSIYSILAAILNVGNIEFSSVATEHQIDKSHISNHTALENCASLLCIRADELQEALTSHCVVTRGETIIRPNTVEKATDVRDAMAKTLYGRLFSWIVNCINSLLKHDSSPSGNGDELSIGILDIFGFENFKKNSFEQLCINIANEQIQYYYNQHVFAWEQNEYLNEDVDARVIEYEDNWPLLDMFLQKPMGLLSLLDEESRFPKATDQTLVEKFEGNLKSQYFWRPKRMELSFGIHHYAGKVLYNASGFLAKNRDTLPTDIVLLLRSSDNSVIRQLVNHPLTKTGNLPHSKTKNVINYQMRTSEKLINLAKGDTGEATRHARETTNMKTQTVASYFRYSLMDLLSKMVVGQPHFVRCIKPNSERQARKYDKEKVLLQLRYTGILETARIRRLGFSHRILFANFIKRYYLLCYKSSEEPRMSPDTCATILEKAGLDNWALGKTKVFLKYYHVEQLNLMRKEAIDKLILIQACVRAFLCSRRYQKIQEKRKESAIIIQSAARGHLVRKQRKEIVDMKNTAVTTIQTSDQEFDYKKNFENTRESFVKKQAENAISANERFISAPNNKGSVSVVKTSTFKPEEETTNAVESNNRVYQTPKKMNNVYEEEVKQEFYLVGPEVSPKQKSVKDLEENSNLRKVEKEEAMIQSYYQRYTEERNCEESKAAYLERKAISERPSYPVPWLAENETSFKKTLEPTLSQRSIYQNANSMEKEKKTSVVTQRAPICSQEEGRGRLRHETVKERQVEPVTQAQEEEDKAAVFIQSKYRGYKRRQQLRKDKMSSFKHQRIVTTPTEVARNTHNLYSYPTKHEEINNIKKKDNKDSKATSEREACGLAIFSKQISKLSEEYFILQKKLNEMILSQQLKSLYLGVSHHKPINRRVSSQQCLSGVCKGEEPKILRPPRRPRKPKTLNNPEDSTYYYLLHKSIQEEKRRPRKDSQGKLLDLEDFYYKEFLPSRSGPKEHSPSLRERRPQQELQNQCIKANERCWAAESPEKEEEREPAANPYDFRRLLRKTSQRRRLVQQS
UniProt Q9Y616, sequence (whole entry, looked up): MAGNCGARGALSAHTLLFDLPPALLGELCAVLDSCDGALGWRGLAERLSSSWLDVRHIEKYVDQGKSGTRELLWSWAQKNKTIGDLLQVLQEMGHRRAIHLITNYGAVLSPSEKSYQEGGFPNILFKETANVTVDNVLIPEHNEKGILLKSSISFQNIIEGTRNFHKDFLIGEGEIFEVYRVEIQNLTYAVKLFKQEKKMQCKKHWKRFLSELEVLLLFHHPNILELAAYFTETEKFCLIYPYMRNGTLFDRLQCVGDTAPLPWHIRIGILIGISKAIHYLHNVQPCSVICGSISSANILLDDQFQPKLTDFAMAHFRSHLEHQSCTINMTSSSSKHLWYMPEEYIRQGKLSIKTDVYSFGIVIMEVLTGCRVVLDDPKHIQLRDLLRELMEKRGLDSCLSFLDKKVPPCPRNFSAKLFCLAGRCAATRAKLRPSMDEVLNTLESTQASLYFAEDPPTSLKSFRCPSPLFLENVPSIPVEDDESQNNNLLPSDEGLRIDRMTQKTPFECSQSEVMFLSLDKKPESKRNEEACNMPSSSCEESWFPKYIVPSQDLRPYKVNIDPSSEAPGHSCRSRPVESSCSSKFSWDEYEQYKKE
UniProt P52564, sequence (whole entry, looked up): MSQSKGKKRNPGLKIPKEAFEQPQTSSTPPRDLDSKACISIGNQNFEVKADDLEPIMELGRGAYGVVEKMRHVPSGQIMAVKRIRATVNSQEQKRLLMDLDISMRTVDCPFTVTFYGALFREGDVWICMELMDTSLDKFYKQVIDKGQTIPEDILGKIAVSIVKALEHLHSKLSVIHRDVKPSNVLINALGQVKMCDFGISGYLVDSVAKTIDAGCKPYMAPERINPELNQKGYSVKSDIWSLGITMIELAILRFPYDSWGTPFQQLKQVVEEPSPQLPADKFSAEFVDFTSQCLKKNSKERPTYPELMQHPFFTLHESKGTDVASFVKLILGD
UniProt P51812, sequence (whole entry, looked up): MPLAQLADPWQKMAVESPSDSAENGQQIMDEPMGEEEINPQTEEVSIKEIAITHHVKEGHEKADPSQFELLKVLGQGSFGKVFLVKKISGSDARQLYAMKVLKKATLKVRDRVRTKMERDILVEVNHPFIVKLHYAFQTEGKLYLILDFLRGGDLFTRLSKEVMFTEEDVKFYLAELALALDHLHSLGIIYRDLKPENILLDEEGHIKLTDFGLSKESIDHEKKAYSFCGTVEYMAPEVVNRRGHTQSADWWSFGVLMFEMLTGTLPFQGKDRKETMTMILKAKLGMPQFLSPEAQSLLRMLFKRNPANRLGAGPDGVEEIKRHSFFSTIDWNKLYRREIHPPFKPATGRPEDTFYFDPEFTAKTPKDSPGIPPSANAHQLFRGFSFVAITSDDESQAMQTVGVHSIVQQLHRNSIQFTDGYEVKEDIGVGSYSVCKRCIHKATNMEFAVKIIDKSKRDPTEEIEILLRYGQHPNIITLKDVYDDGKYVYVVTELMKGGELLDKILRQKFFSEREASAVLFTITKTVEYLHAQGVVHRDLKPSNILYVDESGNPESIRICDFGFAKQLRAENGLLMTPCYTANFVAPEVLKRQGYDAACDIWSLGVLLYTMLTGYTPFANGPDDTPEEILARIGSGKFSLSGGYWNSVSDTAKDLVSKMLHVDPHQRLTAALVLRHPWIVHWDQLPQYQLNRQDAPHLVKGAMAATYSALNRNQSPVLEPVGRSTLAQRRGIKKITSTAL
UniProt Q14012, sequence (whole entry, looked up): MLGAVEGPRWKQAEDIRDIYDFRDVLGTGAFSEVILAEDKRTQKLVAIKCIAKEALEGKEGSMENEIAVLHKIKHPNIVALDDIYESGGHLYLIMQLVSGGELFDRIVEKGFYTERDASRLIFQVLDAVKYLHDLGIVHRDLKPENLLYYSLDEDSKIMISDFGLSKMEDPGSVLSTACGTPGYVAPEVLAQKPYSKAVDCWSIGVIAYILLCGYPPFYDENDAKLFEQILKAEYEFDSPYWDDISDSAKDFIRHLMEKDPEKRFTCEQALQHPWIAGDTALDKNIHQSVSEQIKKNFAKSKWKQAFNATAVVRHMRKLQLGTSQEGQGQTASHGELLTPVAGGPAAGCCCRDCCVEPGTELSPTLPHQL
UniProt P51451, sequence (whole entry, looked up): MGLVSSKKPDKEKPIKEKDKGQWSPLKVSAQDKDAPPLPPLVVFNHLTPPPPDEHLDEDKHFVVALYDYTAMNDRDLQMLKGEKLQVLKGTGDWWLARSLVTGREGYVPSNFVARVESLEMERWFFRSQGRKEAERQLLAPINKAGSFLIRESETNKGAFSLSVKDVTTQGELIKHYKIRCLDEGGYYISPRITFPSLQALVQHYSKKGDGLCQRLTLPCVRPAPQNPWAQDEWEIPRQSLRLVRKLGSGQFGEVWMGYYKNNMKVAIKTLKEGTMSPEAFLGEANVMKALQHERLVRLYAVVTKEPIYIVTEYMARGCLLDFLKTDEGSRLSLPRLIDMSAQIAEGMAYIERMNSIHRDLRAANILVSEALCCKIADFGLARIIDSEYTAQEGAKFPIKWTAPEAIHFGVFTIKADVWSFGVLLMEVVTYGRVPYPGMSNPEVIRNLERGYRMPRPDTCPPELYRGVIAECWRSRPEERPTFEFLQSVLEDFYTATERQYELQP

Set 1
Target: Signal transducer and activator of transcription 1-alpha/beta, full length (STAT1, Homo sapiens, UniProt P42224, residues 1-750)
UniProt P42224, sequence (whole entry, looked up): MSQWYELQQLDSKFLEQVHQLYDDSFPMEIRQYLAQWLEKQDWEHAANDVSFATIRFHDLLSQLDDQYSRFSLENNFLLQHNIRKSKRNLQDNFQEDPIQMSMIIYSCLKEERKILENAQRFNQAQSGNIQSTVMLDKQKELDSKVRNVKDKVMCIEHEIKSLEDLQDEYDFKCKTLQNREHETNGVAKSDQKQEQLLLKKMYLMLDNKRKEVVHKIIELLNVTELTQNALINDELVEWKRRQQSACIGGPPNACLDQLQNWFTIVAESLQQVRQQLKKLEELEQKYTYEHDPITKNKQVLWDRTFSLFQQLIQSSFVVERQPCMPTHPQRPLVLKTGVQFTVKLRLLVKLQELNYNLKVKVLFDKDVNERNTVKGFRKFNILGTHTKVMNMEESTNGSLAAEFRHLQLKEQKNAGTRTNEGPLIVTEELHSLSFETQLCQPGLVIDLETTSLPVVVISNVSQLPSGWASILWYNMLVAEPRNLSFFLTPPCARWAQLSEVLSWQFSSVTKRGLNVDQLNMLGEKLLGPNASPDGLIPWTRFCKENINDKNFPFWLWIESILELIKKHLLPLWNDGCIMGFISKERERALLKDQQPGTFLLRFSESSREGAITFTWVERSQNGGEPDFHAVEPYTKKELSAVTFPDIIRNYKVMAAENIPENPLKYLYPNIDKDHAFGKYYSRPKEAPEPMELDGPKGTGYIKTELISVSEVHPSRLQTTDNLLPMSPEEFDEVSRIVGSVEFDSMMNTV
Method: protein-binding microarray
Form: hairpin DNA
Matrix: in vitro
Tested at: not given
Notes: whole hairpin DNA, median over replicate spots
Reference: not given
Direction: higher = stronger binding
All sequences stand within: GAGGCC … GGCCTCACACTCTTTCCCTACACG
`TTTCCCGCCAGCCTCCTGGCTGGCGGGAAA` gave a median fluorescence of 996 a.u.
For `TTTCCCGGCTGCCTCCTGGCAGCCGGGAAA`, the median fluorescence was 936 a.u.
For `CTTCCCGGAAGCCTCCTGGCTTCCGGGAAG`, the median fluorescence was 10300 a.u.
For `TTTCCTGGAAGCCTCCTGGCTTCCAGGAAA`, the median fluorescence was 5350 a.u.
For `TTTCCCGGACGCCTCCTGGCGTCCGGGAAA (5mC at 16)`, the median fluorescence was 1090 a.u.
`TTGCCCGGAAGCCTCCTGGCTTCCGGGCAA` has a median fluorescence of 2960 a.u.
For `TCGCCCGGAAGCCTCCTGGCTTCCGGGCGA`, the median fluorescence was 964 a.u.
With `TTCGCCGGAAGCCTCCTGGCTTCCGGCGAA (5mC at 9)` the median fluorescence was 1320 a.u.

Set 2
Target: Interferon regulatory factor 5, full length, phosphomimetic (IRF5, Homo sapiens, UniProt Q13568-2, residues 1-514, K96S/S451D/S453D/S456D/S462D)
Method: protein-binding microarray
Form: double-stranded DNA, one strand shown
Matrix: in vitro
Tested at: 250 nM
Notes: 60-bp whole probe
With: salmon DNA 0.4 mg/ml
Reference: random background probes
Direction: higher = stronger binding
All sequences stand within: GCCTAGCAC … GTCTTGATTCGCTTGACGCTGCTG
`CCATGTTGCAGACTCGAAGGGTGCTAG` gave a log fluorescence of -0.374 z-score.
The log fluorescence of `TTAGGACCGCTTCTCCTTTAGTGCTAG` is reported as -0.0413 z-score.
`GACGAACTGGAGACTGGAGACGTGCTA` has a log fluorescence of -0.453 z-score.
The log fluorescence of `AACGGTCTCGGTATCGGGACGTGCTAG` is reported as 1.26 z-score.
With `GACGGTTTCCTTCTCCTGATGTGCTAG` the log fluorescence was 0.871 z-score.
With `TCAACCTTGAACTTCGGACTGTGCTAG` the log fluorescence was -0.0629 z-score.
The log fluorescence of `TCAACTCTGTTTTCGCTTACTGTGCTA` is reported as 3.74 z-score.
For `ATAGGTATCGGACTGGGTTAGTGCTAG`, the log fluorescence was 1.25 z-score.

Set 3
Structure (SMILES): NS(=O)(=O)c1cc(NC(=O)C2(c3ccccc3Cl)CC2)ccc1Oc1cccc(Cl)c1
Method: competition with immobilised ligand
Tested at: 1 µM
The remaining binding was 73% (Leukocyte tyrosine kinase receptor (LTK, Homo sapiens, UniProt P29376); cell-free assay).
For Cyclin-dependent kinase 2 (CDK2, Homo sapiens, UniProt P24941); cell-free assay: remaining binding read 82%.
The remaining binding was 88% (Epidermal growth factor receptor (EGFR, Homo sapiens, UniProt P00533, L858R/T790M); cell-free assay).
It gave 98% for remaining binding (Cyclin-dependent kinase 15 (CDK15, Homo sapiens, UniProt Q96Q40); cell-free assay).
Serine/threonine-protein kinase Nek7 (NEK7, Homo sapiens, UniProt Q8TDX7); cell-free assay — remaining binding: 90%.
For Aurora kinase B (AURKB, Homo sapiens, UniProt Q96GD4); cell-free assay: remaining binding read 84%.
It gave 93% for remaining binding (Myosin-IIIa (MYO3A, Homo sapiens, UniProt Q8NEV4); binding).
Cyclin-G-associated kinase (GAK, Homo sapiens, UniProt O14976); cell-free assay — remaining binding: 76%.
It gave 100% for remaining binding (Tyrosine-protein kinase Blk (BLK, Homo sapiens, UniProt P51451); cell-free assay).
The remaining binding was 100% (Calcium/calmodulin-dependent protein kinase type 1 (CAMK1, Homo sapiens, UniProt Q14012); cell-free assay).
It gave 75% for remaining binding (Interleukin-1 receptor-associated kinase 3 (IRAK3, Homo sapiens, UniProt Q9Y616); cell-free assay).
For Dual specificity mitogen-activated protein kinase kinase 6 (MAP2K6, Homo sapiens, UniProt P52564); cell-free assay: remaining binding read 96%.
It gave 83% for remaining binding (Serine/threonine-protein kinase N2 (PKN2, Homo sapiens, UniProt Q16513); cell-free assay).
The remaining binding was 90% (Platelet-derived growth factor receptor beta (PDGFRB, Homo sapiens, UniProt P09619); cell-free assay).
For Homeodomain-interacting protein kinase 3 (HIPK3, Homo sapiens, UniProt Q9H422); cell-free assay: remaining binding read 100%.
It gave 100% for remaining binding (Receptor-type tyrosine-protein kinase FLT3 (FLT3, Homo sapiens, UniProt P36888, ITD); cell-free assay).
It gave 72% for remaining binding (Serine/threonine-protein kinase TNNI3K (TNNI3K, Homo sapiens, UniProt Q59H18); cell-free assay).
The remaining binding was 74% (Vascular endothelial growth factor receptor 2 (KDR, Homo sapiens, UniProt P35968); cell-free assay).
For Ribosomal protein S6 kinase alpha-3, C-terminal kinase domain (RPS6KA3, Homo sapiens, UniProt P51812); cell-free assay: remaining binding read 92%.

Set 4
Host: human
Matrix: microsomes or S9
Tested at: 2 µM
Time: 0.5 h
The remaining compound of COc1c(O)cc2c(c1O)C(=O)c1c(cc(C)c(O)c1OC)C2=O is reported as > 99%.
With Oc1cc(O)c2sc3nc(-c4ccccc4Cl)ccc3c2n1 the remaining compound was > 99%.
COc1ccc(-c2nnc(N)n2-c2ccc(C)cc2)c(OC)c1 has a remaining compound of > 100%.

Set 5
Organism: Sarcocystis neurona
Read-out: parasite growth
Tested at: 10 µM
Notes: secondary screen
O=C1CCc2ccc(OCCCCN3CCN(c4cccc(Cl)c4Cl)CC3)cc2N1 has an inhibition of -2.8%.
CCCCNc1cc(C(=O)O)cc(S(N)(=O)=O)c1Oc1ccccc1 has an inhibition of -26.9%.
CO/N=C(\C(=O)N[C@@H]1C(=O)N2C(C(=O)O)=C(COC(N)=O)CS[C@H]12)c1ccco1 has an inhibition of -38.4%.

Other studies, line by line
CC[C@H]1OC(=O)[C@H](C)[C@@H](O[C@H]2C[C@@](C)(OC)[C@@H](O)[C@H](C)O2)[C@H](C)[C@@H](O[C@@H]2O[C@H](C)C[C@H](N(C)C)[C@H]2O)[C@](C)(O)C[C@@H](C)/C(=N\OCOCCOC)[C@H](C)[C@@H](O)[C@]1(C)O gave a viability of 61.8% (HaCaT; 100 µM, 36 h).
